Measured values from different studies.
Each line is one published result; not all experiments were run side by side.
HDAC8: Histone deacetylase 8 (HDAC8, Homo sapiens, UniProt Q9BY41)
Chain of UniProt Q9BY41 (whole entry, looked up): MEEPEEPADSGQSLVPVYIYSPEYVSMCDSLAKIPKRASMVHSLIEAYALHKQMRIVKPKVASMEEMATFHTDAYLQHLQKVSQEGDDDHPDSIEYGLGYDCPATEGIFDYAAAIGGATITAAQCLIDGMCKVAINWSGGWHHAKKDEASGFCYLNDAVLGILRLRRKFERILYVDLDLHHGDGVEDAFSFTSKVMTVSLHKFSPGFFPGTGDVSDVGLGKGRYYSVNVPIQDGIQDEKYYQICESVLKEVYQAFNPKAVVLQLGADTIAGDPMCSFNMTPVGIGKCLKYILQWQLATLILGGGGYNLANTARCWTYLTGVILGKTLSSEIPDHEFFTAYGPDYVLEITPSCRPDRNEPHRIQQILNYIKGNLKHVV
PTGS2: Prostaglandin G/H synthase 2 (PTGS2, Homo sapiens, UniProt P35354)
Chain of UniProt P35354 (whole entry, looked up): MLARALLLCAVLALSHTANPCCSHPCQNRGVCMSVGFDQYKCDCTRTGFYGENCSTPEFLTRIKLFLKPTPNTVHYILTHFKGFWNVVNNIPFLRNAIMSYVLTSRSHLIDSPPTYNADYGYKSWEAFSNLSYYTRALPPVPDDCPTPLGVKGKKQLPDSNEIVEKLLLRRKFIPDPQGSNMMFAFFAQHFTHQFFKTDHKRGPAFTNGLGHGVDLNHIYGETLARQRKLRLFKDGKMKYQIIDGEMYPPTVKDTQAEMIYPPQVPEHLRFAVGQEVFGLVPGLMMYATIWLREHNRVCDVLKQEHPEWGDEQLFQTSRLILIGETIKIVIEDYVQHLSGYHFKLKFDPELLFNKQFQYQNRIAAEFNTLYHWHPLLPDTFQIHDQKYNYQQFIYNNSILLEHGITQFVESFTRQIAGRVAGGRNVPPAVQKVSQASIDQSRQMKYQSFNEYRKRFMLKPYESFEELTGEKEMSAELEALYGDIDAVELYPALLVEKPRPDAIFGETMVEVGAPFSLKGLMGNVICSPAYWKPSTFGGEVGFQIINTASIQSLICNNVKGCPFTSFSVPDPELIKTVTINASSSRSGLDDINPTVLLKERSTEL
USP51: Ubiquitin carboxyl-terminal hydrolase 51 (USP51, Homo sapiens, UniProt Q70EK9)
Chain of UniProt Q70EK9 (whole entry, looked up): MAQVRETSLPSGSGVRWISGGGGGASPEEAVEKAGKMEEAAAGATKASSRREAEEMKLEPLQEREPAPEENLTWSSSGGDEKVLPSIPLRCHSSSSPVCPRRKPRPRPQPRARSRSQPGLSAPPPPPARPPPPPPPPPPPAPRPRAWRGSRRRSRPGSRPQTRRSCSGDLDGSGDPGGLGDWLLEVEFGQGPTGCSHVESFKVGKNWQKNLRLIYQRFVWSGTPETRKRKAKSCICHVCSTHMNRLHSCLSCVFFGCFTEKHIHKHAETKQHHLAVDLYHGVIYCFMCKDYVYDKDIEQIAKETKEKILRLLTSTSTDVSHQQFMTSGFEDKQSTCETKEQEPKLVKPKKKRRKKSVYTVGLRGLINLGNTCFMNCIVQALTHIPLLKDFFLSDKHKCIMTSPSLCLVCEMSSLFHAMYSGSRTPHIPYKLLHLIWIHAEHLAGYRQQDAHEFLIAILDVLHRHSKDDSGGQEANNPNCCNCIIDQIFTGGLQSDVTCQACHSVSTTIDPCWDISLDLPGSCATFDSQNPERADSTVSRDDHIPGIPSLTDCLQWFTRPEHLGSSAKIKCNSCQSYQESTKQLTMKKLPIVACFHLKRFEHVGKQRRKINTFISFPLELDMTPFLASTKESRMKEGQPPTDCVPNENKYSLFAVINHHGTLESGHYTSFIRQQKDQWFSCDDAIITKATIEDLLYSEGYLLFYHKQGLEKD
HDAC1: Histone deacetylase 1 (HDAC1, Homo sapiens, UniProt Q13547)
Chain of UniProt Q13547 (whole entry, looked up): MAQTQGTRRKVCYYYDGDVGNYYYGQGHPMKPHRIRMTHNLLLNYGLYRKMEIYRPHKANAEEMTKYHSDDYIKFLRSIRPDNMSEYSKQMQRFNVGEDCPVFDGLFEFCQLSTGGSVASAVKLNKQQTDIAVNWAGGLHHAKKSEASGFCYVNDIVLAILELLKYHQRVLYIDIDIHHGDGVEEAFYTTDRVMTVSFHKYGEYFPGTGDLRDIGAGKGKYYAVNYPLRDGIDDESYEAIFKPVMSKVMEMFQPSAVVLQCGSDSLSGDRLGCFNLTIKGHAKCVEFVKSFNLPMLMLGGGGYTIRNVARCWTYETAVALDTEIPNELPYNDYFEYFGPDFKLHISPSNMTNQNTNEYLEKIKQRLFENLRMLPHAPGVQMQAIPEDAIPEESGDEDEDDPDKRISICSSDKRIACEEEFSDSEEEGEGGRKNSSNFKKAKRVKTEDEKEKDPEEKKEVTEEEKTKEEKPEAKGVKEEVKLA
PDE10A: cAMP and cAMP-inhibited cGMP 3',5'-cyclic phosphodiesterase 10A (PDE10A, Homo sapiens, UniProt Q9Y233)
Chain of UniProt Q9Y233 (whole entry, looked up): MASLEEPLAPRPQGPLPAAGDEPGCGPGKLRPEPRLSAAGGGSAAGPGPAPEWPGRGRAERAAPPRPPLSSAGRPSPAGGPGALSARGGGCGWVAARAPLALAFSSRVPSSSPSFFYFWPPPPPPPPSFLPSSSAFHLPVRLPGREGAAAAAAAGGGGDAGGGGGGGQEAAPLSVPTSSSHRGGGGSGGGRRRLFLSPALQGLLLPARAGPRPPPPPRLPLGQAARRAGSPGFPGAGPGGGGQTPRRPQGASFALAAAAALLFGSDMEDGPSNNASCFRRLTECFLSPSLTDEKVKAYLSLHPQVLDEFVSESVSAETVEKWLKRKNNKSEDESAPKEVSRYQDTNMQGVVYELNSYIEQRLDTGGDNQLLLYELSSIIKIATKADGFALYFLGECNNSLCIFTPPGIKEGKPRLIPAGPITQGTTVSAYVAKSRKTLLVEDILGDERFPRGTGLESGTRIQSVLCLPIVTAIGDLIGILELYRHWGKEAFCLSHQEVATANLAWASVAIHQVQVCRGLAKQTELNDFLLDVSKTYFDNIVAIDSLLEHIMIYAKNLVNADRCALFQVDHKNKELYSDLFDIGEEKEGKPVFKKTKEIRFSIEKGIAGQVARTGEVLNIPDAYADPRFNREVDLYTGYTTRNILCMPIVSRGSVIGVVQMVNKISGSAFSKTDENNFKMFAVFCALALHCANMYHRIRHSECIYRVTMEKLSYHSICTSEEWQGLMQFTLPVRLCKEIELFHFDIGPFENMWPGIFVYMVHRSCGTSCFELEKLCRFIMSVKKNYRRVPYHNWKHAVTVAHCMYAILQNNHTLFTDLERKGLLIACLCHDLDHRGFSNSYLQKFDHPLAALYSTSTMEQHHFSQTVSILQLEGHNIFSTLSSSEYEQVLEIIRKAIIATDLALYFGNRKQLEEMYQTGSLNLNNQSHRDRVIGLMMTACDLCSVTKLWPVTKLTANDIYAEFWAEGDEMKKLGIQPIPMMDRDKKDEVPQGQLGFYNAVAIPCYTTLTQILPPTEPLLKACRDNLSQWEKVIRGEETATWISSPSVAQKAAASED
SIRT6: NAD-dependent protein deacylase sirtuin-6 (SIRT6, Homo sapiens, UniProt Q8N6T7)
Chain of UniProt Q8N6T7 (whole entry, looked up): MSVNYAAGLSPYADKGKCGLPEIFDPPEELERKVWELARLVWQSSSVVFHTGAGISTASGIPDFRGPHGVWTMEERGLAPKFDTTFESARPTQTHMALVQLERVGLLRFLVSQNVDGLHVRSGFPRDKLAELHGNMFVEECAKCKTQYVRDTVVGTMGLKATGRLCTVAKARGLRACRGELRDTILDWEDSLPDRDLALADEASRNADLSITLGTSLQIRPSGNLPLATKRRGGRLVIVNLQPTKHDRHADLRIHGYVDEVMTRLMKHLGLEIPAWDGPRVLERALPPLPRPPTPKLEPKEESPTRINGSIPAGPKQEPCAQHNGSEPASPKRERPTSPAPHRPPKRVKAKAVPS
DHFR: Dihydrofolate reductase (DHFR, Homo sapiens, UniProt P00374)
Chain of UniProt P00374 (whole entry, looked up): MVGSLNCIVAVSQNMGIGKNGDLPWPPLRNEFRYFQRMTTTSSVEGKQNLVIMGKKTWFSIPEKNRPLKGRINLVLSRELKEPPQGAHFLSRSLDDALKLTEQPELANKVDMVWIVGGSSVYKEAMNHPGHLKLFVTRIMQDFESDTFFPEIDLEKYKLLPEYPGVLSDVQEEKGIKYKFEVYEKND
KCNA1: Potassium voltage-gated channel subfamily A member 1 (KCNA1, Homo sapiens, UniProt Q09470)
Chain of UniProt Q09470 (whole entry, looked up): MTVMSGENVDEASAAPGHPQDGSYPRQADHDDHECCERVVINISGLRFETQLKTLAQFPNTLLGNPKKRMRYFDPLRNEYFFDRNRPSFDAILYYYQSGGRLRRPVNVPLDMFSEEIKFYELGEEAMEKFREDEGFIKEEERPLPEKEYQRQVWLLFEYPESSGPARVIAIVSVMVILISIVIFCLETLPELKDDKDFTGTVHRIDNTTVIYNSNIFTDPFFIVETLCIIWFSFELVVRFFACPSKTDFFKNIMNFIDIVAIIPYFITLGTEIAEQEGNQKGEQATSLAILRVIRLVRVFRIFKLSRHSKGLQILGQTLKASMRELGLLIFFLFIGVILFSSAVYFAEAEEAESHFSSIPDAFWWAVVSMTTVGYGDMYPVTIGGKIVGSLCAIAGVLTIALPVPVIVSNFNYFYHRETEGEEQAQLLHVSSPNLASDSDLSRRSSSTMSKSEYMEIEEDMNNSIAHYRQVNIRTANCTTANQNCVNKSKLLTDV
SLC6A4: Sodium-dependent serotonin transporter (SLC6A4, Homo sapiens, UniProt P31645)
CDK5 with p35: Cyclin-dependent kinase 5, with p35 (CDK5, Homo sapiens, UniProt Q00535)
Chain of UniProt Q00535 (whole entry, looked up): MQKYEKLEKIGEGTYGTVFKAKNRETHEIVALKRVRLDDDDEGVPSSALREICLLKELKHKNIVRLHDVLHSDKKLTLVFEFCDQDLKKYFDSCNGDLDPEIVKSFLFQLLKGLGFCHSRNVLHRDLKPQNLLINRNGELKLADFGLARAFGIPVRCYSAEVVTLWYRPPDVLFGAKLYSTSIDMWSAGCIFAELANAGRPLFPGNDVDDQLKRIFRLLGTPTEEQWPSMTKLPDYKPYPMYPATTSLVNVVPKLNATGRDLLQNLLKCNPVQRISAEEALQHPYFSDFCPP
Chain of UniProt P61075 (whole entry, looked up): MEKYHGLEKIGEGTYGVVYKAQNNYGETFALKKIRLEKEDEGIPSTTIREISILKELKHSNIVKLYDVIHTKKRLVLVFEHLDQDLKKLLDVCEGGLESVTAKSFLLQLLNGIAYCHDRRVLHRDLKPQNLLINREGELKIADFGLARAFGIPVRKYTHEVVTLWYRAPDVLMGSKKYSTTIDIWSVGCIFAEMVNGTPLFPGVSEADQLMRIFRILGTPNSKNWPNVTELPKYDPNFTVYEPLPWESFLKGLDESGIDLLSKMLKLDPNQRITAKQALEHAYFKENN

Compound = C[C@H]1O[C@H](O[C@H]2[C@H](O)[C@@H](O)[C@@H](O[C@H]3[C@H](O)[C@@H](O)C(O)O[C@@H]3CO)O[C@@H]2CO)[C@H](O)[C@@H](O)[C@@H]1N[C@H]1C=C(CO)[C@@H](O)[C@H](O)[C@H]1O (some centres unmarked); tested on = Alpha-glucosidase MAL12 (MAL12, Saccharomyces cerevisiae S288c, UniProt P53341); test = enzyme activity, inhibitor, absorbance; conditions = 400 µg/mL; quantity = inhibition; result = 63.5%
Compound = Cc1c(OS(=O)(=O)Oc2ccc(Br)cc2)cccc1C(=O)NO; tested on = HDAC8; test = enzyme activity, inhibitor, fluorescence; conditions = 10 µM; quantity = inhibition; result = 22%
Compound = CNc1ncc2c(/C=C/C(=O)N3CCC(OC)CC3)nn(Cc3cccc(C(F)(F)F)c3)c2n1; tested on = Receptor tyrosine-protein kinase erbB-4 (ERBB4, Homo sapiens, UniProt Q15303); test = enzyme activity, inhibitor, radiometric; conditions = 1 µM; quantity = remaining activity; result = 94%
Compound = CCCCC(=O)Nc1ccc(-c2ccc3ncn(CCC)c(=O)c3c2)cn1; tested on = Epidermal growth factor receptor (EGFR, Homo sapiens, UniProt P00533); test = binding, competition with immobilised ligand; conditions = 0.5 µM; quantity = remaining binding; result = 100%
Compound = O=c1cc(-c2ccc(O)cc2)oc2cc(O)cc(O)c12; tested on = PTGS2; test = enzyme activity, inhibitor; conditions = 1.95 µg/mL; quantity = inhibition; result = 36.2%
Compound = CC(=O)O[C@@]12CO[C@@H]1C[C@H](O)[C@@]1(C)C(=O)[C@H](O)C3=C(C)[C@@H](OC(=O)[C@H](O)[C@@H](NC(=O)OC(C)(C)C)c4ccccc4)C[C@@](O)([C@@H](OC(=O)c4ccccc4)[C@H]21)C3(C)C; tested on = USP51; test = enzyme activity, inhibitor; conditions = 5 µM; quantity = inhibition; result = 0%
Compound = Cc1cc(OS(=O)(=O)Oc2ccc(-n3ccnc3)cc2)cc(C(=O)NO)c1; tested on = HDAC1; test = enzyme activity, inhibitor, fluorescence; conditions = 10 µM; quantity = inhibition; result = 22%
Compound = COc1cc(-c2cc(=O)c3c(O)cc(O)cc3o2)ccc1O; tested on = PTGS2; test = enzyme activity, inhibitor; conditions = 0.12 µg/mL; quantity = inhibition; result = 0%
Compound = Cc1c(OS(=O)(=O)Oc2ccc(Oc3ccccc3)cc2)cccc1C(=O)NO; tested on = HDAC8; test = enzyme activity, inhibitor, fluorescence; conditions = 10 µM; quantity = inhibition; result = 17%
Compound = CC(C)c1[nH]c2nc(N)nn2c(=O)c1Cc1ccc(Cl)c(Br)c1; tested on = C-C chemokine receptor type 5 (CCR5, Homo sapiens, UniProt P51681); test = β-arrestin recruitment, antagonist; conditions = 1 µM; quantity = inhibition; result = 84%
Compound = O=c1cc(-c2ccc(O)c(O)c2)oc2cc(O)cc(O)c12; tested on = PTGS2; test = enzyme activity, inhibitor; conditions = 31.25 µg/mL; quantity = inhibition; result = 100%
Compound = O=c1ccc2ccccc2o1; tested on = USP51; test = enzyme activity, inhibitor; conditions = 5 µM; quantity = inhibition; result = 32%
Compound = Cc1cccc(N(O)N=Nc2ccc(S(=O)(=O)Nc3nccs3)cc2)c1; test = ABTS scavenging; conditions = 180 µg/mL; quantity = inhibition; result = 64.2%
Compound = COc1ccc2ncnc(Cc3ccc(OC)c(OC)c3)c2c1; tested on = PDE10A; test = enzyme activity, inhibitor, FP; conditions = 0.1 µM; quantity = inhibition; result = 25%
Compound = N#Cc1ccc(CONC(=O)c2ccc(C(N)=O)cc2)cc1; tested on = SIRT6; test = enzyme activity, inhibitor, fluorescence; conditions = 100 µM; quantity = inhibition; result = 75.4%
Compound = COc1cccc(-c2cccc(Cc3ncnc4cc(OC)c(OC)cc34)c2)c1; tested on = PDE10A; test = enzyme activity, inhibitor, FP; conditions = 0.1 µM; quantity = inhibition; result = 65%
Compound = COC(=O)c1ccc(O)cc1; tested on = PTGS2; test = enzyme activity, inhibitor; conditions = 0.24 µg/mL; quantity = inhibition; result = 0%
Compound = Cc1c(OS(=O)(=O)Oc2ccccc2)cccc1C(=O)NO; tested on = HDAC8; test = enzyme activity, inhibitor, fluorescence; conditions = 10 µM; quantity = inhibition; result = 32%
Compound = COc1ccc(NC(=S)NN=Cc2ccc(N3CCCCC3)cc2)cc1; tested on = DHFR; test = enzyme activity, inhibitor; conditions = 500 µM; quantity = inhibition; result = 75.9%
Compound = NCC(=O)O; tested on = USP51; test = enzyme activity, inhibitor; conditions = 5 µM; quantity = inhibition; result = 0%
Compound = O=C(NOCc1ccc(C(F)(F)F)cc1)c1ccc(CO)cc1; tested on = SIRT6; test = enzyme activity, inhibitor, fluorescence; conditions = 100 µM; quantity = inhibition; result = 84.2%
Compound = O=C(Nc1ccccc1)Nc1ccc(Oc2nnc(-c3ccc(Cl)cc3)c3ccccc23)cc1; tested on = MCF7; test = cell growth or viability, MTT; conditions = 78 nM; quantity = cell death; result = 3.59%
Compound = S=C(NN=Cc1ccc(N2CCCCC2)cc1)NC1CCCCC1; tested on = DHFR; test = enzyme activity, inhibitor; conditions = 500 µM; quantity = inhibition; result = 78.2%
Compound = C=CC(=O)N1CCC(COCC(=O)N2CCN(c3nc(-c4cnc(N)nc4C(F)F)nc(N4CCOC[C@@H]4C)n3)CC2)CC1; tested on = Cyclin-dependent kinase 2 homolog (CRK2, Plasmodium falciparum, UniProt P61075); test = binding, competition with immobilised ligand; conditions = 1 µM; quantity = remaining binding; result = 92%
Compound = Cc1cc([C@@H](C)Nc2ccccc2C(=O)O)c2nc(N3CCC(F)(F)CC3)c(C#N)c(=O)n2c1; tested on = Mast/stem cell growth factor receptor Kit (KIT, Homo sapiens, UniProt P10721); test = binding, competition with immobilised ligand; conditions = 10 µM; quantity = remaining binding; result = 100%
Compound = CC[C@]1(O)C[C@H]2CN(CCc3c([nH]c4ccccc34)[C@@](C(=O)OC)(c3cc4c(cc3OC)N(C=O)[C@H]3[C@@](O)(C(=O)OC)[C@H](OC(C)=O)[C@]5(CC)C=CCN6CC[C@]43[C@@H]65)C2)C1; tested on = USP51; test = enzyme activity, inhibitor; conditions = 5 µM; quantity = inhibition; result = 32%
Compound = CC12CC3CC(C)(C1)CC(N)(C3)C2; tested on = KCNA1; test = ion current, inhibitor, patch clamp; conditions = 3 µM; quantity = inhibition; result = 7.26%
Compound = O=C(NO)c1cncc(OS(=O)(=O)Oc2ccc(C(F)(F)F)cc2)c1; tested on = Histone deacetylase 9 (HDAC9, Homo sapiens, UniProt Q9UKV0); test = enzyme activity, inhibitor, fluorescence; conditions = 10 µM; quantity = inhibition; result = 31%
Compound = Nc1c(Br)cc(Br)cc1CN[C@H]1CC[C@H](O)CC1; tested on = Sodium channel protein type 1 subunit alpha (SCN1A, Homo sapiens, UniProt P35498); test = ion current, inhibitor, patch clamp; conditions = 3 µM; quantity = inhibition; result = 14.1%
Compound = Cc1cc(OS(=O)(=O)Oc2ccc(Oc3ccccc3)cc2)cc(C(=O)NO)c1; tested on = HDAC1; test = enzyme activity, inhibitor, fluorescence; conditions = 10 µM; quantity = inhibition; result = 6%
Compound = O=C1NC(=O)C(c2ccccc2)(c2ccccc2)N1; tested on = KCNA1; test = ion current, inhibitor, patch clamp; conditions = 3 µM; quantity = inhibition; result = 10.5%
Compound = COc1cc2ccc(=O)oc2c(O[C@@H]2O[C@H](CO)[C@@H](O)[C@H](O)[C@H]2O)c1O; tested on = USP51; test = enzyme activity, inhibitor; conditions = 5 µM; quantity = inhibition; result = 0%
Compound = CCc1nn(C)c2nc(-c3ccc(C(=O)O)cc3)nc(NCc3ccc(F)cc3)c12; tested on = High affinity cAMP-specific and IBMX-insensitive 3',5'-cyclic phosphodiesterase 8A (PDE8A, Homo sapiens, UniProt O60658); test = enzyme activity, inhibitor, radiometric; conditions = 10 µM; quantity = inhibition; result = 30%
Compound = N#CC[C@@]12C[C@@H]1[C@@H](n1cnc3c(Nc4ccccc4)nc(C#Cc4ccc(Cl)s4)nc31)[C@H](O)[C@@H]2O; tested on = SLC6A4; test = ligand displacement, radioligand; conditions = 10 µM; quantity = inhibition; result = 17%
Compound = NC/C(=C\F)COc1cccc(Cn2c(=S)[nH]c(=O)c3[nH]cnc32)c1; tested on = Myeloperoxidase (MPO, Homo sapiens, UniProt P05164); test = enzyme activity, inhibitor, fluorescence; conditions = 15 µM; quantity = inhibition; result = 99.7%
Compound = COc1cc(-c2cc(C(C)=O)n3ccccc23)cc(OC)c1Cn1ccnc1; tested on = Bromodomain-containing protein 9 (BRD9, Homo sapiens, UniProt Q9H8M2); test = protein-protein interaction, inhibitor, AlphaScreen; conditions = 1 µM; quantity = inhibition; result = 96.9%
Compound = COc1cc2nccc(Cc3cccc(-c4ccccc4)c3)c2cc1OC; tested on = PDE10A; test = enzyme activity, inhibitor, FP; conditions = 0.1 µM; quantity = inhibition; result = 33%
Compound = CC(C)(C)c1ccc(OS(=O)(=O)Oc2cccc(C(=O)NO)c2)cc1; tested on = Protein deacetylase HDAC6 (HDAC6, Homo sapiens, UniProt Q9UBN7); test = enzyme activity, inhibitor, fluorescence; conditions = 10 µM; quantity = inhibition; result = 30%
Compound = CN1CC(Oc2cnc(C#N)cc2-c2ccn3nc(NC(=O)C4CC4)cc3c2)C1; tested on = Serine/threonine-protein kinase PLK3 (PLK3, Homo sapiens, UniProt Q9H4B4); test = enzyme activity, inhibitor; conditions = 1 µM; quantity = inhibition; result = 1%
Compound = O=C1CCC[C@@H]2[C@H]3CCC[N+]4([O-])CCC[C@@H](CN12)[C@@H]34 (some centres unmarked); tested on = USP51; test = enzyme activity, inhibitor; conditions = 5 µM; quantity = inhibition; result = 6%
Compound = Cc1c(OS(=O)(=O)Oc2ccc(-n3ccnc3)cc2)cccc1C(=O)NO; tested on = HDAC1; test = enzyme activity, inhibitor, fluorescence; conditions = 5 µM; quantity = inhibition; result = 7%
Compound = CC[C@H](C)[C@H](NC(=O)[C@H](CCC(N)=O)NC(=O)[C@H](CC(C)C)NC(=O)[C@H](CCSC)NC(=O)[C@H](CCCCN)NC(=O)[C@H](CO)NC(=O)[C@H](CO)NC(=O)[C@H](CCSC)NC(=O)[C@H](CC(C)C)NC(=O)[C@H](CC(N)=O)NC(=O)[C@@H](NC(=O)[C@@H](NC(=O)[C@H](CO)NC(=O)[C@H](CC(C)C)NC(=O)[C@H](CS)NC(=O)[C@H](CCCNC(=N)N)NC(=O)[C@H](CC(=O)O)NC(=O)[C@H](Cc1c[nH]c2ccccc12)NC(=O)[C@H](Cc1ccccc1)NC(=O)[C@H](C)NC(=O)[C@H](CCC(=O)O)NC(=O)[C@@H](N)CCCCN)C(C)C)[C@@H](C)CC)C(=O)N[C@@H](CC(N)=O)C(=O)N[C@@H](C)C(=O)O; tested on = CDK5 with p35; test = enzyme activity, inhibitor, radiometric; conditions = 1 µM; quantity = inhibition; result = -2%
Compound = N#CC[C@@]12C[C@@H]1[C@@H](n1cnc3c(NCCCCCCc4ccccc4)nc(I)nc31)[C@H](O)[C@@H]2O; tested on = SLC6A4; test = ligand displacement, radioligand; conditions = 10 µM, cell membranes; quantity = inhibition; result = 82%
Compound = C#CC1(O)CC[C@H]2[C@@H]3CCC4=CC(=O)CC[C@@H]4[C@H]3CC[C@@]21CC (mixture of isomers); tested on = USP51; test = enzyme activity, inhibitor; conditions = 5 µM; quantity = inhibition; result = 36%
Compound = CCCN(O)N=Nc1ccc(S(=O)(=O)Nc2onc(C)c2C)cc1; test = ABTS scavenging; conditions = 180 µg/mL; quantity = inhibition; result = 48.4%
Compound = C=C[C@@]1(C)C=C2CC[C@@H]3[C@](C)(CCC[C@@]3(C)C(=O)O)[C@H]2CC1; tested on = PTGS2; test = enzyme activity, inhibitor; conditions = 7.81 µg/mL; quantity = inhibition; result = 63.4%
Compound = CC[C@H](C)[C@H](NC(=O)[C@H](CCC(N)=O)NC(=O)[C@@H](NC(=O)[C@H](CCSC)NC(=O)[C@H](CCCCN)NC(=O)[C@H](CO)NC(=O)[C@@H](NC(=O)[C@H](CCSC)NC(=O)[C@H](CC(C)C)NC(=O)[C@H](CC(N)=O)NC(=O)[C@@H](NC(=O)[C@@H](NC(=O)[C@H](CO)NC(=O)[C@H](CC(C)C)NC(=O)[C@H](C)NC(=O)[C@H](CCCNC(=N)N)NC(=O)[C@H](CCC(=O)O)NC(=O)[C@H](Cc1ccc(O)cc1)NC(=O)[C@H](Cc1ccccc1)NC(=O)[C@H](C)NC(=O)[C@H](CC(N)=O)NC(=O)[C@@H](N)CCCCN)[C@@H](C)CC)[C@@H](C)CC)[C@@H](C)O)C(C)C)C(=O)N[C@@H](CC(N)=O)C(=O)N[C@H](C(=O)O)C(C)C; tested on = CDK5 with p35; test = enzyme activity, inhibitor, radiometric; conditions = 10 µM; quantity = inhibition; result = 14%
Compound = COc1cc(-c2cncc3c2CN(C)Cc2cc(N4CCNCC4)ccc2-3)cc(OC)c1OC; tested on = cGMP-dependent protein kinase 1 (PRKG1, Homo sapiens, UniProt Q13976); test = enzyme activity, inhibitor; conditions = 1 µM; quantity = remaining activity; result = 96%
Compound = CC[C@@]1(O)C(=O)OCc2c1cc1n(c2=O)Cc2cc3c(CN(C)C)c(O)ccc3nc2-1; tested on = USP51; test = enzyme activity, inhibitor; conditions = 5 µM; quantity = inhibition; result = 31%
Compound = COc1cc([C@H]2OC[C@H]3[C@@H]2CO[C@@H]3c2cc(OC)c(O)c(OC)c2)cc(OC)c1O; tested on = PTGS2; test = enzyme activity, inhibitor; conditions = 7.81 µg/mL; quantity = inhibition; result = 100%
